Experimental data gathered from unrelated publications.
A part holds a random share of what one study measured. Substitutions count along the parent as printed.

Set 1
Target: ABI1, truncated, D143A, DHFR fusion (Arabidopsis thaliana)
Method: DHFR PCA, deep sequencing
Matrix: yeast
Setting: methotrexate growth selection, single substitutions
Added: (+)-ABA 4.8 µM
Reference: wild-type fitted maximum
Direction: higher = stronger binding
Starting sequence: PYL1, truncated, DHFR fusion (Arabidopsis thaliana); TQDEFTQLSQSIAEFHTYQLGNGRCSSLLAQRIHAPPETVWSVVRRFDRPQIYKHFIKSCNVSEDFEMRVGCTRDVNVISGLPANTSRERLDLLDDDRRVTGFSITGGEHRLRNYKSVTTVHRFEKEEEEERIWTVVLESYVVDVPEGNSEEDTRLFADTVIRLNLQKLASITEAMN
Change | relative binding score [%]
N114E | 3.38
A13T | 65.3
K58S | 61.3
D144P | -5.49
E139N | 42.1
E151A | 86.1
F5L | 82.4
E147K | 57.4
G21L | 56.7
F66N | 42.7
T1Q | 71
D92I | 5.64
R98M | 48.9
T101G | -6.93
S117N | -10.4
I105V | 69.4
H34L | 70.1

Set 2
Target: HLF, bZIP domain (human)
Method: DHFR protein complementation
Matrix: yeast
Setting: single substitutions, most at no-binding floor
Reference: wild-type JUN-FOS pair
Direction: higher = stronger binding
Starting sequence: JUN, bZIP domain (human); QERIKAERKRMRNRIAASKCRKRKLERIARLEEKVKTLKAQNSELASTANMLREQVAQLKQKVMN; partner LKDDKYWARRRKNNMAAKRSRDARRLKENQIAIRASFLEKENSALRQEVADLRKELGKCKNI
Change | binding fitness [natural log]
A57S | -1.46
A57E | -1.39
E54N | -1.47
Q41H | -1.5
E32T | -1.39
L38C | -1.53
S43Q | -1.33
K34L | -1.32
K39V | -1.34
S47E | -1.29
L52V | -1.41
L52W | -1.39
E44K | -1.38
K34Y | -1.37
I28E | -1.45
A40M | -1.29
A49V | -1.45
L38S | -1.46
Q41I | -1.45
K36Y | -1.45
I28Y | -1.45
Q55N | -1.38
Q41K | -1.46
L45Q | -1.59

Set 3
Target: CCNE2, cyclin fold, Cln2 fusion (human)
Method: yeast growth competition, sequencing
Matrix: yeast
Setting: strong parent motif
Reference: not given
Direction: higher = stronger binding
Starting sequence: PKN2 docking peptide (human); VSAVRKLDFSDTM
Change | normalised enrichment score
V4M | 2.3
L7D | -0.0669
D11H | 4.46
D11T | 4.9
D11K | 5.19
F9E | 0.235
V4L | 0.988
A3L | 1.19
F9I | 0.365
V4G | 0.0604
S2Y | 3.5
L7Y | 0.326
D8L | 1.93
S2V | 2.26
A3E | 0.353
L7N | 0.159
T12F | 5.08
F9K | 0.295
A3K | 0.624
F9C | 0.313
R5V | 0.18
A3G | 1.37
R5K | 1.6
S10Q | 3.51
D8G | 0.586

Set 4
Target: Histone acetyltransferase KAT6A, winged helix 1, GST fusion (KAT6A, Homo sapiens, UniProt Q92794, residues 1-85)
Method: protein binding microarray
Form: double-stranded DNA, one strand shown
Matrix: in vitro
Concentration: not given
Setting: 8-mer, flanks averaged, mean of 2 arrays, mostly near background
Reference: not given
Direction: higher = stronger binding
Construct (chain): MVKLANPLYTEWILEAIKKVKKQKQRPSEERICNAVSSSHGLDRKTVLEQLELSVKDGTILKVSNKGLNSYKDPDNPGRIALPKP
Oligonucleotide | E-score
CAGGTTTC | -0.182
ATGGGTCG | 0.0286
AACGCAGA | -0.139
ACTAGAGA | -0.046
CTGGAACC | -0.0537
CTGCGTGA | 0.144
CGGCGCAC | 0.435
AGCACGAT | -0.0538
AAGGACAC | -0.166
AGCGGGCC | 0.297
ACAGCAAT | -0.141
CAAACAGA | -0.152
CACGCTTA | 0.108
GCCGATCC | 0.327
CTCGGCAA | 0.101
AAACCAGA | -0.122
GAGGGAAC | -0.0278
CTCGAATC | -0.284
CGCCAAGA | 0.0691
TCATAGGA | -0.218
CCTCCACC | -0.0985
ACCGTAGG | 0.176

Some of these lines once more (set 2):
Change | binding fitness [natural log]
L52V | -1.41
L52W | -1.39
E44K | -1.38
K34Y | -1.37
I28E | -1.45
A40M | -1.29
A49V | -1.45
L38S | -1.46
Q41I | -1.45
K36Y | -1.45
I28Y | -1.45
Q55N | -1.38
